# Experimental data collected from several papers.
# Lines come from different studies, so protocols differ. Values joined by “and” are separate records of one study, mostly repeats; a detail may differ.
# Matrix: plasma
Structure (SMILES),host,route,dose,setting,half-life
CC1(C)CC[C@]2(C(=O)O[C@@H]3O[C@H](CO[C@@H]4O[C@H](CO)[C@@H](O)[C@H](O)[C@H]4O)[C@@H](O)[C@H](O)[C@H]3O)CC[C@]3(C)C(=CC[C@@H]4[C@@]5(C)CC[C@H](O[C@@H]6OC[C@H](O)[C@H](O)[C@H]6O)[C@@](C)(CO)[C@@H]5CC[C@]43C)[C@@H]2C1,Sprague-Dawley rat,oral,150 mg/kg,,31.6 h
Nc1nc(Cl)nc2c1ncn2Cc1cc(OCC(F)F)cc(OC(F)F)c1,Sprague-Dawley rat,intravenous,2.5 mg/kg,,5.37 h
COc1cc2ncnc(Oc3ccc(Nc4nccc5[nH]cc(-c6ccc(F)cc6)c(=O)c45)cc3F)c2cc1OC,male Sprague-Dawley rat,intravenous,5 mg/kg,,16.8 h
CC12CC3CC(C)(C1)CC(NC(=O)Nc1ccc(C(=O)N4CCCC(C(N)=O)C4)cc1)(C3)C2 (stereo not shown),Sprague-Dawley rat,intravenous,10 mg/kg,,2.66 h
C[Si]1(C)CNC(=O)c2ccccc21,rat,intravenous,1 mg/kg,single dose,1.9 h
"CNC(=O)N[C@]1(C)CCC[C@@]2(C)C3CC[C@@]4(C)C[C@]3(CCC21)CC4=O (single isomer, unassigned)",male Sprague-Dawley rat,oral,2 mg/kg,,1.29 h
N#Cc1cnc2cc(OCC3CCNCC3)c(F)cc2c1Nc1cc(F)c(OCc2cccc(Cl)n2)cc1Cl,male Sprague-Dawley rat,oral,100 mg/kg,,8 h
Cc1cc(CNCCCCCC(=O)NO)ccc1OCc1cccc(-c2ccccc2)c1C,rat,intravenous,10 mg/kg,,8.36 h and 8.37 h
COC(=O)c1ccc2c(c1)NC(=O)/C2=C(\Nc1ccc2c(c1)CCN2C(=O)CN1CCOCC1)c1ccccc1,Sprague-Dawley rat,oral,10 mg/kg,,4.81 h
Cc1cccc(Cn2ncc3c4cc(F)c(CN(C)C)cc4n(C)c3c2=O)n1,rat,intravenous,5 mg/kg,,0.8 h
CC(C)(C)C(=O)Nc1ccc2[nH]c(CN3CCC(N(CCCN4CCOCC4)CC4OC(n5cnc6c(N)ncnc65)C(O)C4O)CC3)nc2c1 (stereo not shown),male Sprague-Dawley rat,intravenous,20 mg/kg,,1.62 h
CC1(C)CNC(=O)c2ccccc21,rat,oral,5 mg/kg,single dose,1.3 h
CC(C)C[C@H](NC(=O)CNC(=O)[C@H](Cc1ccccc1)NC(=O)[C@H](CO)NC(=O)[C@H](CC(N)=O)NC(=O)[C@H](Cc1c[nH]c2ccccc12)NC(=O)[C@H](CC(N)=O)NC(=O)[C@@H](N)Cc1ccc(O)cc1)C(=O)N[C@@H](CCCNC(=N)N)C(=O)N[C@@H](Cc1ccccc1)C(N)=O,rat,intravenous,1 mg/kg,,< 0.0167 h
O=C(c1ccccc1)c1cc(O)c(-c2cc(Cl)cc(Cl)c2)c(O)c1,male Sprague-Dawley rat,intravenous,5 mg/kg,single dose,3.03 h
Cc1ccc(OCC(=O)N(Cc2cccs2)c2ccn[nH]2)cc1,female Sprague-Dawley rat,oral,100 mg/kg,single dose,2.91 h
COc1ccc(S(=O)(=O)N2CCc3ccccc3C2)cc1N1CCN(C(=O)c2ccc(F)cc2C(F)(F)F)CC1,rat,intravenous,10 mg/kg,single dose,0.72 h
N[C@H](COc1ccccc1C(F)(F)F)c1ccccc1,rat,intravenous,5 mg/kg,,3.8 h
O=c1c2cc(Cl)ccc2sc2c(NCc3ccccc3)nc3ccccc3c12,male Sprague-Dawley rat,intravenous,3 mg/kg,single dose,4.51 h
CC12CC3CC(C)(C1)CC(NC(=O)Nc1ccc(C(=O)N4CCC[C@H](C(N)=O)C4)cc1F)(C3)C2,Sprague-Dawley rat,oral,50 mg/kg,,5.18 h
N=C(N)NCCC[C@H](NC(=O)[C@@H]1CCCN1C(=O)[C@H](Cc1ccccc1)NC(=O)[C@@H]1CCCN1C(=O)[C@H](Cc1c[nH]cn1)NC(=O)[C@@H](N)Cc1ccccc1)C(=O)O,male Sprague-Dawley rat,oral,50 mg/kg,,0.561 h
CSCOC1C(=O)C2(C)C(OCSC)CC3OCC3(OC(C)=O)C2C(OC(=O)c2ccccc2)C2(O)CC(OC(=O)C(O)C(C=C(C)C)NC(=O)OC(C)(C)C)C(C)=C1C2(C)C (stereo not shown),male Sprague-Dawley rat,intravenous,1 mg/kg,,8.1 h
COc1ccc2c(c1OCc1ccccc1)C[C@@H](C(=O)O)N(c1nc3ccc(C#N)cc3o1)C2,male Sprague-Dawley rat,intravenous,1 mg/kg,,4.2 h
C#Cc1cccc(Nc2ncnc3cc(OC)c(OCCCN4CCOCC4)cc23)c1,Sprague-Dawley rat,oral,40 mg/kg,,3.73 h
Cc1cc(N)nc(CC2CNCC2OCCNCC(F)(F)c2cccc(F)c2)c1 (stereo not shown),rat,oral,5 mg/kg,,3.7 h
C[Si](C)(C)C[C@@H](CN)CC(=O)O,male Sprague-Dawley rat,oral,100 mg/kg,single dose,2.49 h
Cc1cc(N2CCC(C#N)(C3(C)CC3)C2=O)cc(C(=O)NCc2cc(F)cc(-c3cnn(C)c3)c2)n1 (racemic),male Sprague-Dawley rat,oral,3 mg/kg,,7.2 h
Cc1cc(/C=C/C#N)cc(C)c1Oc1nc(NC2CCN(Cc3ccc(P(C)(C)=O)cc3)CC2)nc2ccsc12,male Sprague-Dawley rat,intravenous,2 mg/kg,,0.6 h
CCOC(=O)c1cc2c(N)c(C(=O)OC)sc2nc1C,male Sprague-Dawley rat,subcutaneous,100 mg/kg,,1.38 h
Cn1cc(-c2cc(N3CCCCS3(=O)=O)ccc2N[C@H]2CC[C@H](C)CC2)c2cc[nH]c2c1=O (stereo in doubt),Sprague-Dawley rat,oral,3 mg/kg,,1 h
COc1ccc(COc2c(OC)ccc3c2C[C@@H](C(=O)O)N(c2nc4ccc(F)cc4o2)C3)cc1,male Sprague-Dawley rat,intravenous,1 mg/kg,,2.4 h
O=C(N[C@@H](CC1CCCCC1)C(=O)N[C@@H](C[C@H]1CCNC1=O)C(=O)C(=O)NC1CC1)OCc1cccc(Cl)c1,female Sprague-Dawley rat,intravenous,10 mg/kg,,7.52 h
OC1(C(F)(F)F)CCN(c2nc(Nc3ccnc(C(F)(F)F)c3)nc(-c3cccc(C(F)(F)F)n3)n2)C1 (stereo not shown),Sprague-Dawley rat,intravenous,1 mg/kg,,16.3 h
C[Si]1(C[C@H](CN)CC(=O)O)CCCC1,male Sprague-Dawley rat,oral,100 mg/kg,single dose,2.23 h
Cn1cc(-c2cc(N3CCCS3(=O)=O)ccc2N[C@H]2CC[C@H](C)CC2)c2cc[nH]c2c1=O,Sprague-Dawley rat,intravenous,1 mg/kg,,1.09 h
